Published values from different studies.
Parts stem from different laboratories: compare values within a part only. Values joined by “and” are separate records of one study, mostly repeats; a detail may differ. Numbers after ± are the reported error.

Study 1 — cell line: HEK-293T/ACE2; tested at: 10 µM; time: 16 h; relative to: vehicle
Compound	viability
CO/N=C(\C(=O)N[C@@H]1C(=O)N2C(C(=O)OCOC(=O)C(C)(C)C)=C(/C=C\c3scnc3C)CS[C@H]12)c1csc(N)n1	98.2%
C[C@]12CCC(=O)C=C1[C@@H]1C[C@@H]1[C@H]1[C@@H]3[C@@H]4C[C@@H]4[C@@]4(CCC(=O)O4)[C@@]3(C)CC[C@@H]12	97.8%
CNCC[C@@H](Oc1ccccc1C)c1ccccc1	99.2%

Study 2 — observed: enzyme activity; mode: inhibitor; tested at: 20 µM; setting: primary screen
Target: Replicase polyprotein 1ab, main protease (rep, Severe acute respiratory syndrome coronavirus 2, UniProt P0DTD1)
Compound	inhibition [%]
O=C1NC(=O)C(c2ccccc2)N1 (centres unmarked)	64
c1cc2c(cc1C1CCCCC1)c1c3n2CCNC3CCC1 (centres unmarked)	39
CCCCc1nc(C)c(CC(=S)N(C)C)c(=O)n1Cc1ccc(-c2ccccc2-c2nnn[nH]2)cc1	40
Cc1ccc([N+](=O)[O-])cc1S(=O)(=O)N(C)C	45.8

Study 3 — observed: helicase activity; mode: inhibitor; technique: high-content helicase; organism: SARS-CoV-2; tested at: 20 µM
Target: Replicase polyprotein 1ab, nsp13 helicase (rep, Severe acute respiratory syndrome coronavirus 2, UniProt P0DTD1)
SMILES	inhibition
O=S(=O)(O)c1ccc(-c2c3nc(c(-c4ccc(S(=O)(=O)O)cc4)c4ccc([nH]4)c(-c4ccc(S(=O)(=O)O)cc4)c4nc(c(-c5ccc(S(=O)(=O)O)cc5)c5ccc2[nH]5)C=C4)C=C3)cc1	88%
Oc1c(I)cc(I)c(O)c1I	101%
CC(C)N[C@@H]1CCn2c(=O)[nH]c3cccc(c32)[C@H]1O	89.2%
CC(=O)[O][Pt]([NH2])([Cl])([Cl])([NH]C1CCCCC1)[O]C(C)=O	100%
CC(=O)OC[C@H]1O[C@@H]([S-])[C@H](OC(C)=O)[C@@H](OC(C)=O)[C@@H]1OC(C)=O.CCP(CC)CC.[Au+]	101%
Nc1nnc(Sc2ncc([N+](=O)[O-])s2)s1	102%
O=C1C(c2ccccn2)=[N+]([O-])c2ccccc21	100%
Cc1ccc(S(=O)(=O)/C=C/C#N)cc1	101%
O=C(O)c1ccc(N2C(=O)/C(=C\c3ccc(-c4ccc([N+](=O)[O-])cc4)o3)C=C2c2ccccc2)cc1	87.6%
O=[N+]([O-])C=Cc1ccc2c(c1)OCO2	85.7%
CC1(C)C(/C=C/C=C/C=C/C=C2\N(CCCCS(=O)(=O)O)c3ccc4ccccc4c3C2(C)C)=[N+](CCCCS(=O)(=O)[O-])c2ccc3ccccc3c21	102%
O=C(O)c1ccc(SSc2ccc(C(=O)O)cn2)nc1	103%
CCn1c(N)c(C(=O)NC)c(=O)c2ccc(C#C[C@@](C)(O)COC)nc21	91.2%
CCOC(=O)C1=C(N)Oc2ccc(Br)cc2[C@H]1[C@H](C#N)C(=O)OCC	98% and 97.5%
O=C(/C=C/c1ccc2ccccc2n1)c1ccncc1	100%
OC[C@H]1O[C@H]([S-])[C@H](O)[C@@H](O)[C@@H]1O.[Au+]	101%
CCC(C)SSc1ncc[nH]1 (centres unmarked)	101%
CCN(CC)C(=S)S	87.1%
O=C1C=CC(=O)C2=C1C1c3ccccc3C2c2ccccc21	102%

Further values, each from its own experiment
Spike glycoprotein: Spike glycoprotein (Severe acute respiratory syndrome coronavirus 2, UniProt P0DTC2)
SMILES	tested on	test	system	setting	how to read	endpoint	result
COC(=O)[C@H]1[C@H]2C[C@@H]3c4[nH]c5cc(OC)ccc5c4CCN3C[C@H]2C[C@@H](OC(=O)c2cc(OC)c(OC)c(OC)c2)[C@@H]1OC	SARS-CoV-2	viral replication, high-content imaging screen		cell-based		EC50	> 50100 nM
CC(C)(C)NCC(O)COc1cccc2[nH]c(C#N)cc12 (centres unmarked)	mouse MPNST tumor cells	high-content immunofluorescence imaging, item: nuclear SOX9		10 µM, 12 h, mean of 2 replicates	relative to: DMSO control, higher = more nuclear SOX9	nuclear SOX9 intensity	96.5 % of DMSO
Cc1cc(/C=C/C#N)cc(C)c1-n1cnc2cnc(Nc3ccc4cc(C#N)ccc4c3)nc21	HIV-1	viral replication, single-round infection	RT mutant K101P			EC50	65.9 ± 6.4 nM
O=C(Nc1ccc(Cl)c(-c2nc3ncccc3o2)c1)c1cccc(OCc2ccccc2)c1	HEK293T	pseudovirus entry	SARS-CoV spike pseudotyped HIV-1	72 h		EC50	> 50000 nM
COc1ccc(C[C@@H]2c3cc(Oc4cc(C[C@@H]5c6cc(O)c(OC)cc6CCN5C)ccc4O)c(OC)cc3CCN2C)cc1	SARS-CoV-2	viral cytopathic effect	Vero E6	0.7812 µM		mean inhibition	0%
CC(C)(C)NCC(O)COc1cccc2c1CCC(=O)N2 (centres unmarked)	Spike glycoprotein	nanoDSF	spike RBD in PBS	5 µM, pH 7.4, RBD 100 µM		ΔTm	0 °C
CNC(=O)[C@@H](NC(=O)[C@H](CC(C)C)[C@H](O)C(=O)NO)C(C)(C)C	Daboia russelii venom proteases (SVMP)	protease activity, inhibitor	GA population	10 µM, with: azocasein substrate	relative to: venom alone	remaining activity	5.03% and 8.14% and 4.33%
CCCOc1ccc(C(=O)CCN2CCCCC2)cc1	SARS-CoV-2	viral replication, high-content imaging screen		cell-based		EC50	> 100000 nM
CN(C)c1ccc(N(Cc2cc(Cl)cs2)C(=O)Cc2cncc3ccccc23)cc1	SARS-CoV-2		Caco-2, Omicron BA.5		relative to: CC50 over EC50	selectivity index	257
Cn1cnc(Cn2c(=O)[nH]/c(=N\c3cc4cn(C)nc4cc3Cl)n(Cc3cc(F)c(F)cc3F)c2=O)n1			human, normal renal function	oral, 375 mg, vessel puncture site haemorrhage TEAE, Mild severity		patients with adverse event	0%
Cc1cc(/C=C/C#N)cc(C)c1Nc1nc(Nc2ccc(/C=C/C#N)cc2)ncc1N	HIV-1	viral replication, single-round infection	RT mutant E40K			EC50	0.8 ± 0.1 nM
COc1cc(O)c(CC=C(C)C)c2c1C(=O)CC(c1ccc(O)cc1)O2 (centres unmarked)	Spike glycoprotein	binding, BLI				kon	1790 M⁻¹ s⁻¹
